# Published values pooled from the literature.
# A part holds a random share of what one study measured. Substitutions count along the parent as printed.

# Sample 1 — target: CCND2, cyclin fold, Cln2 fusion (human); method: yeast growth competition, sequencing; medium: yeast; notes: weak parent motif; relative to: not given; reading: higher = stronger binding
# Starting sequence: BRCA2 docking peptide (human); PSIKRNLLNEFDR; partner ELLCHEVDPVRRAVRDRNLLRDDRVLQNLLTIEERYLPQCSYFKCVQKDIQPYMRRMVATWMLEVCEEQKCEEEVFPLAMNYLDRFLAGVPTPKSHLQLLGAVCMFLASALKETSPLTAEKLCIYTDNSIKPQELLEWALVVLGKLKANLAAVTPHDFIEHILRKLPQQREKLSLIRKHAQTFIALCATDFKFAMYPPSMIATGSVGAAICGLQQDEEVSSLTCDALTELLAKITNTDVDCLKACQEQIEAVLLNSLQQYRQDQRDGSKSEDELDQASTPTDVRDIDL
Change,normalised enrichment score
E10P,0.103
R5N,-0.09
I3G,0.455
R5T,-0.301
F11V,0.427
N6H,0.168
R13K,-0.706
F11E,-0.144
N6R,0.183
K4T,-0.129
E10C,-0.519
N6Y,-0.032
N6S,0.0928
R5W,-0.284
N9T,0.366
I3F,0.122

# Sample 2 — method: DHFR PCA, deep sequencing; medium: yeast; together with: (+)-ABA 710 µM; relative to: wild-type fitted maximum; reading: higher = stronger binding
# Target: ABI1, truncated, D143A, DHFR fusion (Arabidopsis thaliana)
# Notes: methotrexate growth selection, single substitutions
# Starting sequence: PYL1, truncated, DHFR fusion (Arabidopsis thaliana); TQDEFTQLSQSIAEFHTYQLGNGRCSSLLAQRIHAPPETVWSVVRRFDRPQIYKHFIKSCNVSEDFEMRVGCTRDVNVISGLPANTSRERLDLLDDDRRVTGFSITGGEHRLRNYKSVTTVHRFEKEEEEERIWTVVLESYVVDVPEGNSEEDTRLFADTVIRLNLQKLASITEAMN
Change,relative binding score
V40I,94.8%
K54D,6.46%
V43W,71.4%
Y115V,-9.3%
L8A,81.9%
L166F,69.4%
R155Q,103%
N61A,97.5%
T6H,117%
H55S,106%
K116I,57.1%
V143P,-10.3%
L28Q,97.7%
E109S,109%
E174L,87.7%
H122M,58.1%
S9R,105%
S150G,92.7%
D159F,19%
Y18H,102%
R24Y,91.3%
V44N,6.12%
P50S,27.3%
L91W,67.9%

# Sample 3 — method: RNA Bind-n-Seq; form: RNA; medium: in vitro; tested at: 365 nM; relative to: no-protein control; reading: higher = stronger binding
# Target: RNA binding protein fox-1 homolog 2, RRM domain, GST-SBP tag (RBFOX2, Homo sapiens, UniProt O43251-10, residues 100-194)
# Notes: natural RNA segment, single round, ends assumed
# Target sequence (chain): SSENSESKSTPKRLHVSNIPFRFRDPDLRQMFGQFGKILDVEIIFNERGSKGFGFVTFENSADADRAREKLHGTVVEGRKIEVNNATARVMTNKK
Oligonucleotide,RBNS enrichment (R)
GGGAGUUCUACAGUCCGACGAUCUGCUGGGCAUGCUUCGUAGAGGGCCAGGAGCAGCAGGUCAUGUGCACAUGCCGUUGCAGCACAAGCUUAUGCUUCCCGUAGCCGUGGCUUUUCAUUCUGCACAGUCCCAGUGGAAUUCUCGGGUGCCAA,0.563
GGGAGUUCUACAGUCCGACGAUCCAUUCCUUUCUCUGCGCCUGCCCCCAUCUCAGGGACCAUGAUGUCUCAUCCAGUCCUCUCUUCCUCAGGCCACCCAGGGACAGUUCACAUCUGCAGCCUUCAGAAUGUCCUGGAAUUCUCGGGUGCCAA,0.588
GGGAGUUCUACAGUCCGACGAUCAGGUUUGGCGGGGGGCCACAGGGAGGGGACCCUGACAAUAAAGAGAUUGGAUCCCAACCUGUUCUGAGAUGGGAUGGUUUGUGUUUUCUCAUGAAGAUAUCCCGGCCCCUUGGAAUUCUCGGGUGCCAA,0.595
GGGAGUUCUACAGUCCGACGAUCUGCUGUGCGGCUUCACCAGCGGUUGGGAUUGGCCCAGCUUGGAGUGCUUGUGUGGUCCAACCUCAGUCUGGCCCCAUAGCGACUUUUGCCCCAUGAUUCUGCUUCACUGUUGGAAUUCUCGGGUGCCAA,0.6
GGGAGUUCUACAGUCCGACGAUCUGAACACUUCCUUGCUUUUUUCACAUGUUUUAUGGAAUUGUUCACCUGGUUUGAAAUAAUAAAAUGUAGAAAGAAAAAAAAUACCGAGAACUGAUGGGUAUUCUCUCCCAUGGAAUUCUCGGGUGCCAA,0.425
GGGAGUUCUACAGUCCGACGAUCGUUUGUUUGGUUUUGGUUUCUUUUCUUGAAUGUGCUUUAGUAGCCAGAUCCUCCAAGGAAGGCAAAAGCCAGCCAGCCAGAGAGAGAGUAGCGAAGCGGGCAGGCUGCAGUGGAAUUCUCGGGUGCCAA,4.6
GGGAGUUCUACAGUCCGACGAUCGUUUCCCCUCAAUCAGGUUGAUAAGACCUUCUAAGCUUCUGCCAAGCAUCUUCAGUGCUCACAAUCAUGUGUCCCCUAGCCUCACCCCUGCAGUUCAGGCCUGUUUCUGUUGGAAUUCUCGGGUGCCAA,1.33
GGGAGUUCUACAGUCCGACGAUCAACAUUUUGGAUUUUCAUAUGUGUCUGAUAAGUGGUUGUAUAGUCGUUUGGCGCUGUUGUAUGGUGUGAUUGUCAGUGUAUGGUGUCACUUCCUAUAGCCAGCAGCAGACUGGAAUUCUCGGGUGCCAA,0.245
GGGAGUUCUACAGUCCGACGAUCAUUACAAGUAAUGUAAAGAUGAUUUAAGUAUACAGGAGGAUGUGAAUAGGUUAUAUGCAAGCACUAUGCCCUUUUAUAUAAGUGACUUGAACAUCUGUGCCCGAUUUUAGUGGAAUUCUCGGGUGCCAA,0.8
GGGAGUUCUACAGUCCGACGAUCUUCCCUCGCUAUAUAUCUAUCUUUAUCCAGCCCGAGUAUUUCCAACGUCAUUUUGCAAAUUAGAACAGGACAAAUUUUAUGUUUCCGGGGCACAUAUGUUGUAUUGCAAAUGGAAUUCUCGGGUGCCAA,1.4
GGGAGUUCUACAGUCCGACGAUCAACCACUAUCCCCAGUAUGUAAUGGCUGAAUUAAUAUGUAAUCAACUGCAUUGUAUCUAAAGCCUUAGAACUAGUCAGGUGCUCCUCCCACCCAAUACCAUUUCUUACCCUGGAAUUCUCGGGUGCCAA,0.327
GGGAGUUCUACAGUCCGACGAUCGUUUGACAGAACCACAUCACAUCGUGGAGAAGCUGGUGCAGGAGUUCCUAGAGCCCCAGGGUCAACUGUCCUCUCUAGCAUGCAGCCUGUGACAGCUUGCUUCAGGACAAUGGAAUUCUCGGGUGCCAA,3.62

# Sample 4 — method: protein-binding microarray; form: double-stranded DNA, one strand shown; medium: in vitro; tested at: 2200 nM top; notes: 60-bp whole probe; together with: salmon DNA 0.4 mg/ml; relative to: random background probes; reading: higher = stronger binding; constant ends, left off below: GCCTAGCAC … GTCTTGATTCGCTTGACGCTGCTG
# Target: Interferon regulatory factor 7, full length, phosphomimetic (IRF7, Homo sapiens, UniProt Q92985, residues 1-503, S471D/S472D/S475D/S476D/S477D/S483D/S484D/S487D)
# Construct (chain): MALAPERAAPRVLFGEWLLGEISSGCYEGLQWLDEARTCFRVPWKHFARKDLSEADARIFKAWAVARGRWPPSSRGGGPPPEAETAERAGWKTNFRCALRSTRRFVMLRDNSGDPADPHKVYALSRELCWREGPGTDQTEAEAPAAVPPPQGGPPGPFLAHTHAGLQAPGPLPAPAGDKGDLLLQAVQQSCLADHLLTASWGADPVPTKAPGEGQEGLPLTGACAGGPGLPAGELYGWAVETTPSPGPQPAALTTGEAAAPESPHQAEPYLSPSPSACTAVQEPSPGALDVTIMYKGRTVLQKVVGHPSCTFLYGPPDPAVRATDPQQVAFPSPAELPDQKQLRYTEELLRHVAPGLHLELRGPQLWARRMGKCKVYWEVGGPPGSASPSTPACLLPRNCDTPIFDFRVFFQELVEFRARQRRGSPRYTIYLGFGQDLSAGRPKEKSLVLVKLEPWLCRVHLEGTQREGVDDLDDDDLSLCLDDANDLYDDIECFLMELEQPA
Oligonucleotide,fitted relative affinity
TATCAGCAAACTTTTCTTGAGTGCTAG,0.131 z-score
TTGTCTCCCCCATCTTGTTCCGTGCTA,0.996 z-score
GAAGATTTCGATTACAAAAAGTGCTAG,1.7 z-score
GCCTTTTTTTTTTTTTCTGAGTGCTAG,1.6 z-score
TTAGGTTTCGAGTTTCGGTTAGTGCTA,9.44 z-score
GACGGTTTCGGTTCCGGGGCGTGCTAG,11.4 z-score
TCAGTTCTGATCCTTCCCACTGTGCTA,2.1 z-score
TCACTTATTAAGATTGTGACTGTGCTA,0.301 z-score
GACGGTCTCCTACTGTTGACGTGCTAG,0.862 z-score
TTAGAACTGGGGCATCGATTAGTGCTA,-0.437 z-score
TTCGGTATCGGTTTCGGTTAGTGCTAG,7.74 z-score
TTAGAACTGGGGTATCGAATAGTGCTA,-0.145 z-score
GACGTTATCGGGTATCGGGACGTGCTA,0.31 z-score
GACGATCTCAGATTGGAGACGTGCTAG,-0.333 z-score
ATCCTTGTCCCTCCGGGAGCGTGCTAG,0.508 z-score
GACGATTTCAGTATTGAGACGTGCTAG,0.774 z-score

# Sample 5 — method: RNA Bind-n-Seq; form: RNA; medium: in vitro; tested at: 1 µM; notes: whole 134-nt RNA, ends assumed; together with: 150 mM KCl; relative to: input library; reading: higher = stronger binding
# Target: Ras GTPase-activating protein-binding protein 1, C-terminal RGG region (G3BP1, Homo sapiens, UniProt Q13283)
# UniProt Q13283, sequence (whole entry, looked up): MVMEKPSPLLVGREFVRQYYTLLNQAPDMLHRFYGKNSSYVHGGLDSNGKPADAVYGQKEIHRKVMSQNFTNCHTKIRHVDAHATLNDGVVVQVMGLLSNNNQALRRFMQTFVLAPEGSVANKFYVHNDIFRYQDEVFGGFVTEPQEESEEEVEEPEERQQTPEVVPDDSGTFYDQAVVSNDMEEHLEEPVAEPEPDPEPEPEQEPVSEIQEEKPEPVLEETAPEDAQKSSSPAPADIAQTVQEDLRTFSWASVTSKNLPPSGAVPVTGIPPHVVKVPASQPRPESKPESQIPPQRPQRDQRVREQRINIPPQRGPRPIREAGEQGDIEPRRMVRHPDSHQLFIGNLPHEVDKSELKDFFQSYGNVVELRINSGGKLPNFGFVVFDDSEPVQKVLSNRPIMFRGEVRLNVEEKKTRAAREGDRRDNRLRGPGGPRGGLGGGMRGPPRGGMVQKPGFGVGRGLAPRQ
Oligonucleotide,log2 enrichment
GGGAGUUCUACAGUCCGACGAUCUGUGCUACACAUCGUAUGUACCGAAUCGGGAAAAAAAGGGGAAAAAAAGGGGAAAAAAAGGGAAAGUAUUAUGUUACGCCGUUCGGAUCUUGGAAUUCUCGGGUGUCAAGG,-0.674
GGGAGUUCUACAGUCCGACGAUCAGUCCUGUGCUACACAUCGUAUGUACCGAAUCGGGGAGGGGAGGGGUUUUUUUGGGGAAAGUAUUAUGUUACGCCGUUCGGAUCUGCACUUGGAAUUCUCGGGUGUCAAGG,2.15
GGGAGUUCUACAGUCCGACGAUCGAAGGAAGUAAAAACAAAUGGAAAUGCUUCGGAUAGUGGCAGGGGUGGGGGUUGCUAAGGAAAGGGUGGGAUGGGAGUGGGUAAAGAGUUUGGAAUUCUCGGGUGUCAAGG,1.7
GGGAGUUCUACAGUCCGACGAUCUCCUGUGCUACACAUCGUAUGUACCGAAUCGGGGAAAAAAGGAAAAAAGGGGAAAAAAGGAAAGUAUUAUGUUACGCCGUUCGGAUCUGCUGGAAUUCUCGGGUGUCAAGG,-1.26
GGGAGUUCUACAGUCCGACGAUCUUCCAACAGUUAUGGGAUCCCAGAACCUGCUCAUGCAUACGCUCAACCUCAGACCACAACUCCUCUACCUGCAGUUUCCGGUUCUCCUGGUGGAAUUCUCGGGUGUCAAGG,-0.16
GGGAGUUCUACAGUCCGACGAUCCAAGUCCUGUGCUACACAUCGUAUGUACCGAAUCGGUUUUUUUGGAAAAAGGAGGAAAGUAUUAUGUUACGCCGUUCGGAUCUGCACUUCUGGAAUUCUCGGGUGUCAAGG,-1.97
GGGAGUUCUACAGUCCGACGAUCACCAUGCAGGUGGGCAUCUUUUGGAAGUGGGGCAAGGGGGGGAUAGGGAGGGGGGUAACACUUUGGGAACAGGUGGUCCCAGGUCGUUUCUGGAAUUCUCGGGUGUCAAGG,-0.921
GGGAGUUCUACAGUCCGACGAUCUCCUGUGCUACACAUCGUAUGUACCGAAUCGGGGUUUGGGGAAAAAGGGGAAAAAGGGGAAAGUAUUAUGUUACGCCGUUCGGAUCUGCAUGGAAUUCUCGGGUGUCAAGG,2.1
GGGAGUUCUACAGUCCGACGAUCAUCAUGCAGGUGGGCAUCUUUGGGAAGUGGGGCAAGGGGGGGAUAGGGAGGGGGGUAACACUUUGGGAACAGGUGGUCCCAGGUCGUUUCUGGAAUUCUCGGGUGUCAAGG,-1.06
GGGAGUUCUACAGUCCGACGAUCGUCCUGUGCUACACAUCGUAUGUACCGAAUCGGGGCCCCCGGGGCCCCCGGCCCCCGGAAAGUAUUAUGUUACGCCGUUCGGAUCUGCACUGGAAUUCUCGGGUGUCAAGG,-1.46
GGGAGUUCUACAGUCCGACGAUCCCCGAGCCGGAGAGGGAGCGCGAGCCGCGCCGGCCCCGGUCGGGCCUCCGAAACCAUGAACUUUCUGCUGUCUUGGGUGCAUUGGAGCCUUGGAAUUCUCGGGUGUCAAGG,-0.327
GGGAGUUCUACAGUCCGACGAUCCAAGUCCUGUGCUACACAUCGUAUGUACCGAAUCGGAAAGGGAAAGGGAAAGGGGAAAGUAUUAUGUUACGCCGUUCGGAUCUGCACUUCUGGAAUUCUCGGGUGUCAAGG,-0.913
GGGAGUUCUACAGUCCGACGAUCUGGCCCUGGUGGCAUGCGGGGAGGAAGAGGUGGCCUCAUGGAUCGUGGUGGUCCCGGUGGAAUGUUCAGAGGUGGCCGUGGUCGAGACAGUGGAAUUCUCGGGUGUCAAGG,3.65
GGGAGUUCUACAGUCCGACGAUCCCUCAAGUCCUGUGCUACACAUCGUAUGUACCGAAUCGGAAAGGUUUGGAGGAAAGUAUUAUGUUACGCCGUUCGGAUCUGCACUUCCAGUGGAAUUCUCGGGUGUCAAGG,-0.623
